Results gathered from unrelated publications.
Every numbered part comes from another study and shows a few of its results, in no order.
Sequence of UniProt Q86UE8 (whole entry, looked up): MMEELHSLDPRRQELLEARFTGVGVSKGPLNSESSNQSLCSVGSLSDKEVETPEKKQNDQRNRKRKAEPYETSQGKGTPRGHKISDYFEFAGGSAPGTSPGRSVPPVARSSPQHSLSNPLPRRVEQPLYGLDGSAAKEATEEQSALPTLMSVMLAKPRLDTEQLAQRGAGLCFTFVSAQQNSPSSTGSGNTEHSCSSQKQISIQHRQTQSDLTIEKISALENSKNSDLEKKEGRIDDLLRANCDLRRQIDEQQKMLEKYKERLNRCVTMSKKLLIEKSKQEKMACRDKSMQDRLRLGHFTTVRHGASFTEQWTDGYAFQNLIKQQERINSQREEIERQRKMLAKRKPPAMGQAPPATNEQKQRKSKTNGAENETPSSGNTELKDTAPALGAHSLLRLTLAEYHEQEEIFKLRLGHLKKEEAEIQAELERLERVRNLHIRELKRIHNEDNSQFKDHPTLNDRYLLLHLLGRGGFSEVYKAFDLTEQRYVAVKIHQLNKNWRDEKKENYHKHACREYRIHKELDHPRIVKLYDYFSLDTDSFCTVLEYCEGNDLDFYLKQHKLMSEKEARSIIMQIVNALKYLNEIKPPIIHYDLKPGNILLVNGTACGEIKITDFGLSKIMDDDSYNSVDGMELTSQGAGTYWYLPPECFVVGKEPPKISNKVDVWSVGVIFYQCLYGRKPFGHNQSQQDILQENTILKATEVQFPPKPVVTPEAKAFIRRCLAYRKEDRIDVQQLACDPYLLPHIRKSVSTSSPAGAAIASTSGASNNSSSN
Sequence of UniProt P78362 (whole entry, looked up): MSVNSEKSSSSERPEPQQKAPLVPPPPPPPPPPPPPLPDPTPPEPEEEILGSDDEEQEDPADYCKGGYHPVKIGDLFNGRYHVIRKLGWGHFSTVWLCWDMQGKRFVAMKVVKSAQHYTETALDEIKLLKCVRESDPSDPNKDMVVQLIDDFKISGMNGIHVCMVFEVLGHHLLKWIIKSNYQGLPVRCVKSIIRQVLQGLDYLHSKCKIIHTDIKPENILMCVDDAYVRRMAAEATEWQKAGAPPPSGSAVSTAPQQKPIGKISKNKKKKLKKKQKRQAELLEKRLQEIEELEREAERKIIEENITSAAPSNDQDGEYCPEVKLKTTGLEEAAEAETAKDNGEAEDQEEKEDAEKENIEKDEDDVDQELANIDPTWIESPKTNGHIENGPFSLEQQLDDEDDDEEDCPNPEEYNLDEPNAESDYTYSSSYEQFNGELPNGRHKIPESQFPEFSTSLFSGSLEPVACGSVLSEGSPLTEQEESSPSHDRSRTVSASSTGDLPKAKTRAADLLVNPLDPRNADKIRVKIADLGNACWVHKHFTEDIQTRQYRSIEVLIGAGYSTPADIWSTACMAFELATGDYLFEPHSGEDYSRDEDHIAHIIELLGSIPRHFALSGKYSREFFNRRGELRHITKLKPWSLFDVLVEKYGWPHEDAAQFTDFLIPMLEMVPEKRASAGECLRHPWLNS
Sequence of UniProt P23458 (whole entry, looked up): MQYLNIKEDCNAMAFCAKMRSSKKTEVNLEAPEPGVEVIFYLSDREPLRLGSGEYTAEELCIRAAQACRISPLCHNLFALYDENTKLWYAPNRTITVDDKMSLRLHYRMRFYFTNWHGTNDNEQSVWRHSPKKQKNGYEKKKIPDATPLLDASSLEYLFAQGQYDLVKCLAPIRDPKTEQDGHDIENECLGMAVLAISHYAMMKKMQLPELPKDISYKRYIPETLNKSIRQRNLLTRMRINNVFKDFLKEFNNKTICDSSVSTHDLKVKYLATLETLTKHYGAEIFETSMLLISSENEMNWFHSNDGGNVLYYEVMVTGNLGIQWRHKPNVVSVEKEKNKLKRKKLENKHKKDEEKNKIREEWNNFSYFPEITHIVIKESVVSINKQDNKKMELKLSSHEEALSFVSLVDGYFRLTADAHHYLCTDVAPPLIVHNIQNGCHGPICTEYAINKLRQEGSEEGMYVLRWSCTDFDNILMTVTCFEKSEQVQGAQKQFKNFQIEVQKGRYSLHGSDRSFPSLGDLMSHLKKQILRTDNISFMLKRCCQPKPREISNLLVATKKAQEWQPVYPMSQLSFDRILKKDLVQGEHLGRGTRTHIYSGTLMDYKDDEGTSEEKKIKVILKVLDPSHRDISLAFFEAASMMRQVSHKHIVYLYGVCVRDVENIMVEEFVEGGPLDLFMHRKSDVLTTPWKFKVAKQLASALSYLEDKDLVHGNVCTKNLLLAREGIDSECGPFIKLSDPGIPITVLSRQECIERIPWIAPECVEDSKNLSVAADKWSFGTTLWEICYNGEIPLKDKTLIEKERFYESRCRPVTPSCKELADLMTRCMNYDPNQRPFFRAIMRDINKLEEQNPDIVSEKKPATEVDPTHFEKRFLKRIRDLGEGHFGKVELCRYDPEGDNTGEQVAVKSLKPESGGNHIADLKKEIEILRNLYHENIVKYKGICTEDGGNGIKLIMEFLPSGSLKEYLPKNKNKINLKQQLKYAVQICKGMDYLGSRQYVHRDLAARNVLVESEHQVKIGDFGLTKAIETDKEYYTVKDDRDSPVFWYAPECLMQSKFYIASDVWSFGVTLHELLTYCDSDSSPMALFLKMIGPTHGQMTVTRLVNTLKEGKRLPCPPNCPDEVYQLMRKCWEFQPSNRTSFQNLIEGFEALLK
Sequence of UniProt P54764 (whole entry, looked up): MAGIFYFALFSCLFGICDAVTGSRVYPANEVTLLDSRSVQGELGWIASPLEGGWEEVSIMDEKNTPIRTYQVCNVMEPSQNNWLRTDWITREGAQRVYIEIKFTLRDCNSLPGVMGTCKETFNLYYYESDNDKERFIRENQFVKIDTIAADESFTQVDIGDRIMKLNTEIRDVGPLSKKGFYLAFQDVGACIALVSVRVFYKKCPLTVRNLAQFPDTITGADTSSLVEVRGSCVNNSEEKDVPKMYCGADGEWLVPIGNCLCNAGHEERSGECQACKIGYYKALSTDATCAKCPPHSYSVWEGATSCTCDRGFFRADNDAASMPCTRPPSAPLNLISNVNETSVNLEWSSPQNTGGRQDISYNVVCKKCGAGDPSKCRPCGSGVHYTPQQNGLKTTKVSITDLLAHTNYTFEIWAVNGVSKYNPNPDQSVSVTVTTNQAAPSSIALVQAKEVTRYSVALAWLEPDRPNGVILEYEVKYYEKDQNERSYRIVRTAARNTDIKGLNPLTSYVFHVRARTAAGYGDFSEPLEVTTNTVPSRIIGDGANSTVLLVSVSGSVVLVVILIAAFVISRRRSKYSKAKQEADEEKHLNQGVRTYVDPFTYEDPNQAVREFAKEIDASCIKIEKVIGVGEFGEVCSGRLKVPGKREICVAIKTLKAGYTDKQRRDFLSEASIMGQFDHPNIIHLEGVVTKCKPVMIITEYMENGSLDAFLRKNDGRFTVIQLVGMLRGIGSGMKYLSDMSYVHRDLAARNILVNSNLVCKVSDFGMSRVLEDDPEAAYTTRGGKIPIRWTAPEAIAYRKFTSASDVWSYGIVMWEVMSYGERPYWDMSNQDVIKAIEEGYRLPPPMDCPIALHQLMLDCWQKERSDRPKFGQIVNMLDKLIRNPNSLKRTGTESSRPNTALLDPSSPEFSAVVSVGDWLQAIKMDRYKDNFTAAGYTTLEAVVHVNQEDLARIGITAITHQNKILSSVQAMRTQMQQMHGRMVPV
Sequence of UniProt P06239 (whole entry, looked up): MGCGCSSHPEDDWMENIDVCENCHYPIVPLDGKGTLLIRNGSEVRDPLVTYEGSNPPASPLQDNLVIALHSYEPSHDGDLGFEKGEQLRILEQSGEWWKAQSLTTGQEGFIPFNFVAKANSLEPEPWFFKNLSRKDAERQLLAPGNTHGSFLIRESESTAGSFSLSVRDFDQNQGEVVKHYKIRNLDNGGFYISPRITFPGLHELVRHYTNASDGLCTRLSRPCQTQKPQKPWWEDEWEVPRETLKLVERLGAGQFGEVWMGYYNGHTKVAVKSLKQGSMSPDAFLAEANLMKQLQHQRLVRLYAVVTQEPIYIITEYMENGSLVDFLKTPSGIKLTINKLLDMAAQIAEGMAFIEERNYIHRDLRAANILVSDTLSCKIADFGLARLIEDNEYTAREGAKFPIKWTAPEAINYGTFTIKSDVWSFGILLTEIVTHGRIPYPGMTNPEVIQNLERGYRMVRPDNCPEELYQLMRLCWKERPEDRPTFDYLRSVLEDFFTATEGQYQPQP
Sequence of UniProt O76039 (whole entry, looked up): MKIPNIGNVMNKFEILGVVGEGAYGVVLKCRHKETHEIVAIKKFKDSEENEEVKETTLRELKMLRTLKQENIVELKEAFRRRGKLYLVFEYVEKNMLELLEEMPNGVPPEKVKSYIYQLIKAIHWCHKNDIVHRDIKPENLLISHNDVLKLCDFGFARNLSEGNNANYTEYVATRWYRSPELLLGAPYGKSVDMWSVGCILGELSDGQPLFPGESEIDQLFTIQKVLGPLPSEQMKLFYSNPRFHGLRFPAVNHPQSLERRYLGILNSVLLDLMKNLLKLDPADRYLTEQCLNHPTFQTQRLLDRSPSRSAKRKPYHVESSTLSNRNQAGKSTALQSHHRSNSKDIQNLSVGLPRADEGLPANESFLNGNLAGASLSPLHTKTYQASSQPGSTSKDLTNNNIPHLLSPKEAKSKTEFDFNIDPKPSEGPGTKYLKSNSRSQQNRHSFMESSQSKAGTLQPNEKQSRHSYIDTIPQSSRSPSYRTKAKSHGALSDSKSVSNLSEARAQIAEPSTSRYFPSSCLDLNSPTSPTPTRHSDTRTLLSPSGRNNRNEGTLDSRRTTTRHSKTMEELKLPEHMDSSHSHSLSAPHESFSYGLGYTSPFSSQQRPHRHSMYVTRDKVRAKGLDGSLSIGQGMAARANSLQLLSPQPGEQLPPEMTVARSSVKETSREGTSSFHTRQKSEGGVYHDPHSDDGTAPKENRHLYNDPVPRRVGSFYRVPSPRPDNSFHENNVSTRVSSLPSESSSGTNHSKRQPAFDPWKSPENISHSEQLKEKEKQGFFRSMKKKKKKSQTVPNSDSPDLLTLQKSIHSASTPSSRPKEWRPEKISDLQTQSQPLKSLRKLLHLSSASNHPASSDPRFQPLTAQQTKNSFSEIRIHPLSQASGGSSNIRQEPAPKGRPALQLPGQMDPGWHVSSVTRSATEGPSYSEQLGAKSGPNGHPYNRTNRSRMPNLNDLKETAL

Sample 1 — method: competition with immobilised ligand; concentration: 1 µM
Compound: Cc1c(C(=O)O)cc(-c2ccc(C3CCNCC3)cc2)c2ccc(-c3ccc(C(F)(F)F)cc3)cc12
target | effect on | remaining binding [%]
Tyrosine-protein kinase ABL1, non-phosphorylated (ABL1, Homo sapiens, UniProt P00519, F317I) | binding | 100
Dual serine/threonine and tyrosine protein kinase (DSTYK, Homo sapiens, UniProt Q6XUX3) | binding | 100
Mitogen-activated protein kinase kinase kinase 5 (MAP3K5, Homo sapiens, UniProt Q99683) | binding | 100
Tyrosine-protein kinase ABL1, phosphorylated (ABL1, Homo sapiens, UniProt P00519) | binding | 82
Receptor-type tyrosine-protein kinase FLT3 (FLT3, Homo sapiens, UniProt P36888, N841I) | binding | 100
Tyrosine-protein kinase ABL1, phosphorylated (ABL1, Homo sapiens, UniProt P00519, M351T) | binding | 100
SRSF protein kinase 2 (SRPK2, Homo sapiens, UniProt P78362) | binding | 82
Cyclin-dependent kinase 4, with cyclin D1 (CDK4, Homo sapiens, UniProt P11802) | binding | 100
Protein kinase C epsilon type (PRKCE, Homo sapiens, UniProt Q02156) | cell-free assay | 100
Cyclin-dependent kinase-like 5 (CDKL5, Homo sapiens, UniProt O76039) | binding | 100
ALK tyrosine kinase receptor (ALK, Homo sapiens, UniProt Q9UM73, L1196M) | cell-free assay | 100
Tyrosine-protein kinase JAK1, JH1 (JAK1, Homo sapiens, UniProt P23458) | binding | 100
Cyclin-dependent kinase 3 (CDK3, Homo sapiens, UniProt Q00526) | binding | 100
Insulin receptor (INSR, Homo sapiens, UniProt P06213) | cell-free assay | 100
Wee1-like protein kinase 2 (WEE2, Homo sapiens, UniProt P0C1S8) | binding | 100
Serine/threonine-protein kinase tousled-like 2 (TLK2, Homo sapiens, UniProt Q86UE8) | cell-free assay | 100
Ephrin type-A receptor 4 (EPHA4, Homo sapiens, UniProt P54764) | cell-free assay | 100
Tyrosine-protein kinase Lck (LCK, Homo sapiens, UniProt P06239) | binding | 100

Sample 2 — target: His6 tag; method: AlphaScreen counter screen; concentration: concentration not given
SMILES | inhibition
COc1cc(C=C2SC(=O)NC2=O)cc(OC)c1O | 0.05%
O=C(Cc1ccc(-c2ccc(OCCN3CCOCC3)cc2)cn1)NCc1ccccc1 | 10.8%
CC1CCc2nc(C(C#N)=Cc3ccncc3)sc2C1 (stereo not drawn) | 5.75%
O=C(CSc1ccc2nnc(-c3cccc(F)c3)n2n1)Nc1cccc(F)c1 | -7.85%
O=C(Nc1cc(C(F)(F)F)ccc1N1CCCCC1)c1ccncc1 | -10.4%
CCCOc1ccc(NC(=O)Nc2ccc(Cl)c(Cl)c2)cc1 | 6.4%
O=C1NC(=O)C(=Cc2cccc(OCc3ccc(Cl)cc3Cl)c2)S1 | 12.7%
CCN(CC)CCCCNc1ncc2cc(-c3cc(OC)cc(OC)c3)c(NC(=O)NC(C)(C)C)nc2n1 | 2.75%
OC1CCN(Cc2c(-c3ccco3)[nH]c3ncccc23)CC1 | 9.9%
CC(C)n1nc(-c2ccc3oc(N)nc3c2)c2c(N)ncnc21 | 1.05%
CC(=C(C#N)c1nc2ccccc2s1)c1ccc(Cl)cc1 | 9.3%
CCS(=O)(=O)N1CC(CC#N)(n2cc(-c3ncnc4[nH]ccc34)cn2)C1 | 9.5%
COC(=O)c1[nH]c2ccccc2c1NC(=O)CN(C)CC1OCCO1 | -15%

Sample 3 — effect on: enzyme activity; action: inhibitor; concentration: 0.5 µM; relative to: control
Target: Serine/threonine-protein kinase haspin (HASPIN, Homo sapiens, UniProt Q8TF76)
Construct (Q8TF76 1-798): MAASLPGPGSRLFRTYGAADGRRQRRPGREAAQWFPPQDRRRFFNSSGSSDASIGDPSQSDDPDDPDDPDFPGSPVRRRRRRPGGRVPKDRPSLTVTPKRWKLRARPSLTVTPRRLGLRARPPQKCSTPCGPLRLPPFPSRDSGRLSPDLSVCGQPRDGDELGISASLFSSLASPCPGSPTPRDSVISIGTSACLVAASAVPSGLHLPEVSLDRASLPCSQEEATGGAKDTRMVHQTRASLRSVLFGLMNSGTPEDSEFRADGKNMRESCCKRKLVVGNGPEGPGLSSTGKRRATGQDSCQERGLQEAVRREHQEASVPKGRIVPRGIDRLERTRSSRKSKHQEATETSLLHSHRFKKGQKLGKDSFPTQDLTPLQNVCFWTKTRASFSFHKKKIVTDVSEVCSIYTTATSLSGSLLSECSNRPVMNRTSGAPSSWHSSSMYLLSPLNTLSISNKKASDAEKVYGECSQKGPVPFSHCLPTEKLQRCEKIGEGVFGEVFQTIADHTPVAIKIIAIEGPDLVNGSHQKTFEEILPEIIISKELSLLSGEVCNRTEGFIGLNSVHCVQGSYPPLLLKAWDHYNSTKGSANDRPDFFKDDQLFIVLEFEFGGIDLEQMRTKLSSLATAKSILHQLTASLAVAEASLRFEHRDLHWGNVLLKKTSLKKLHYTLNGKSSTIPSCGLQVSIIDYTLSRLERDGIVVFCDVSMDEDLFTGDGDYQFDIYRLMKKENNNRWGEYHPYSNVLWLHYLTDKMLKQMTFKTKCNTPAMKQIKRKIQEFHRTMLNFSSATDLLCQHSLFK
Structure (SMILES) | remaining activity
Cc1nc(Nc2ncc(C(=O)Nc3c(C)cccc3Cl)s2)cc(N2CCN(CCO)CC2)n1 | 91.9%
COc1ccc(-c2cnc3c(-c4ccsc4)cnn3c2)cc1 | 77.2%
O=c1cc(N2CCOCC2)oc2c1ccc1ccccc12 | 85.6%
COc1cc2ncnc(N3CCN(C(=O)Nc4ccc(Oc5ccccc5)cc4)CC3)c2cc1OC | 93.2%
CC(C)c1nn(-c2c(Cl)cccc2Cl)c2nc(Cc3ccc(OCCO)cc3)[nH]c(=O)c12 | 94.3%
O=C1NC(=O)/C(=C/c2ccc3nccnc3c2)S1 | 38.8%
CCN1/C(=C/C(C)=O)Sc2ccc(OC)cc21 | 25%
COc1cc2ncnc(Nc3ccc(OCc4ccccc4)cc3)c2cc1OC | 86.2%
CCOc1cc2ncnc(Nc3cccc(Br)c3)c2cc1OCC | 90.6%
CN(C)CCCn1cc(C2=C(c3c[nH]c4ccccc34)C(=O)NC2=O)c2ccccc21 | 93.6%
CS(=O)(=O)CCNCc1ccc(-c2ccc3ncnc(Nc4ccc(OCc5cccc(F)c5)c(Cl)c4)c3c2)o1 | 66.5%
CC(C)[C@H](CO)Nc1nc(Nc2cccc(Cl)c2)c2ncn(C(C)C)c2n1 | 93.6%
Cn1cnc2cc3c(Nc4cccc(Br)c4)ncnc3cc21 | 89.4%
Nc1[nH]nc2nnc(-c3c(-c4ccccc4)nn4ccccc34)cc12 | 97.1%
C[S+]([O-])c1ccc(-c2nc(-c3ccncc3)c(-c3ccc(F)cc3)[nH]2)cc1 (stereo not drawn) | 88.2%
CC(=O)O/N=C1/C(c2c(O)[nH]c3cc(Br)ccc23)=Nc2ccccc21 | 85.5%
CCC(=O)Nc1ccc2ncnc(Nc3cccc(Br)c3)c2c1 | 95.2%
O=C(Nc1ccc(Cl)cc1)c1ccccc1NCc1ccncc1 | 95.5%
COc1ccc(Cl)cc1NC(=O)Nc1cc(C)nc2ccccc12 | 95.7%
COc1cc2ncc(-c3ccccc3)nc2cc1OC | 92.1%
Cc1ccc(NC(=O)c2ccc(CN3CCN(C)CC3)cc2)cc1Nc1nccc(-c2cccnc2)n1 | 92.7%
Cn1cc(/C=C2\C(=O)Nc3ccc(S(N)(=O)=O)cc32)c2ccccc21 | 93.1%

Sample 4 — species: human; sample: microsomes or S9; concentration: 2 µM; time: 0.5 h
Structure (SMILES) | remaining compound [%]
CCN(CC)S(=O)(=O)c1ccc(NC(=O)CN(c2cc(C)ccc2C)S(C)(=O)=O)cc1 | 1.39
Cc1ccc2c(-c3cn4c(C)c(C)sc4n3)c(C)[nH]c2c1 | 52.9
CCN1CCCC1CNC(=O)C1CCCN(c2ncnc3[nH]cnc23)C1 (stereo not drawn) | 76.3
CCCn1ccnc1C1CC(=O)Nc2cc(O)c(OC)cc21 (stereo not drawn) | 93.7
Cc1[nH]c(C(=O)NCc2ccc3c(c2)OCO3)c(C)c1S(=O)(=O)N1CCCCCC1 | 83
COc1ccc(-n2ccc3cc(NC(=O)N4CCCCC4)ccc32)cc1Cl | 62.9
CCO[C@H]1CN(Cc2cc(=O)c3c(C)ccc(C)c3[nH]2)C[C@@H]1O | > 100
